# Published values of several laboratories.
# Every numbered part comes from another study and shows a few of its results, in no order.
# Sequence of UniProt O75676 (whole entry, looked up): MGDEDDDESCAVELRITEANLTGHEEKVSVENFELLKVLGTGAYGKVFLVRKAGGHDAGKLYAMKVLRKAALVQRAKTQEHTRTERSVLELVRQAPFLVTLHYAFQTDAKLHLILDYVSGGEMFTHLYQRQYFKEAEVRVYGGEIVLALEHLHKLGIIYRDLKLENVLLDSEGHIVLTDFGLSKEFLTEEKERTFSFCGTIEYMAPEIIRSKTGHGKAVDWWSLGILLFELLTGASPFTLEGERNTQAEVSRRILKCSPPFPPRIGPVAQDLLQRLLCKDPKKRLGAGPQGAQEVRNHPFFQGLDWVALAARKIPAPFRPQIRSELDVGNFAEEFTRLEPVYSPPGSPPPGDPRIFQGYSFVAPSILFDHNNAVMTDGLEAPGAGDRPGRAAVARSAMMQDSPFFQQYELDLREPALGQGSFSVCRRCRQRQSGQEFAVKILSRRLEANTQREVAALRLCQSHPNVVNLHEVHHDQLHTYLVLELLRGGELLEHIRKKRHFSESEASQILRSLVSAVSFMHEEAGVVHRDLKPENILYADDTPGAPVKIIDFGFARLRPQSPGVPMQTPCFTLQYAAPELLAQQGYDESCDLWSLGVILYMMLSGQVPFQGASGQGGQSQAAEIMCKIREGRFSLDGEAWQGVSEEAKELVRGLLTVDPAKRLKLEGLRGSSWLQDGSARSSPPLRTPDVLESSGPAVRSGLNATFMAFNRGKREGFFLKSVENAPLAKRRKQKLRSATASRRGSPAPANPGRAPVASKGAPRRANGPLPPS
# Sequence of UniProt O00238 (whole entry, looked up): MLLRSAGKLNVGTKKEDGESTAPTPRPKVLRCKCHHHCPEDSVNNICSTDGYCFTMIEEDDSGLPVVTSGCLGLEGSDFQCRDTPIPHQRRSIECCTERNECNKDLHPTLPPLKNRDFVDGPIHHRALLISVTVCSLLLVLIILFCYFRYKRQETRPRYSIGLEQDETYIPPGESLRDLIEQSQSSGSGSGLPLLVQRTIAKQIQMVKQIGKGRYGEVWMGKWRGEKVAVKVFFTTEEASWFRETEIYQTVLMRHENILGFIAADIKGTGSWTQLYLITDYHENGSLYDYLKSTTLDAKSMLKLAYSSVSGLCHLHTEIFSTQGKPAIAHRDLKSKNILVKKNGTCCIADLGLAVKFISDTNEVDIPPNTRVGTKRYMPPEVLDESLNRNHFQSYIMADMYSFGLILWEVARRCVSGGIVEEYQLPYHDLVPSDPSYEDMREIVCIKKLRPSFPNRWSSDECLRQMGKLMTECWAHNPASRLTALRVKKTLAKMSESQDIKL
# Sequence of UniProt P00519 (whole entry, unmodified, looked up): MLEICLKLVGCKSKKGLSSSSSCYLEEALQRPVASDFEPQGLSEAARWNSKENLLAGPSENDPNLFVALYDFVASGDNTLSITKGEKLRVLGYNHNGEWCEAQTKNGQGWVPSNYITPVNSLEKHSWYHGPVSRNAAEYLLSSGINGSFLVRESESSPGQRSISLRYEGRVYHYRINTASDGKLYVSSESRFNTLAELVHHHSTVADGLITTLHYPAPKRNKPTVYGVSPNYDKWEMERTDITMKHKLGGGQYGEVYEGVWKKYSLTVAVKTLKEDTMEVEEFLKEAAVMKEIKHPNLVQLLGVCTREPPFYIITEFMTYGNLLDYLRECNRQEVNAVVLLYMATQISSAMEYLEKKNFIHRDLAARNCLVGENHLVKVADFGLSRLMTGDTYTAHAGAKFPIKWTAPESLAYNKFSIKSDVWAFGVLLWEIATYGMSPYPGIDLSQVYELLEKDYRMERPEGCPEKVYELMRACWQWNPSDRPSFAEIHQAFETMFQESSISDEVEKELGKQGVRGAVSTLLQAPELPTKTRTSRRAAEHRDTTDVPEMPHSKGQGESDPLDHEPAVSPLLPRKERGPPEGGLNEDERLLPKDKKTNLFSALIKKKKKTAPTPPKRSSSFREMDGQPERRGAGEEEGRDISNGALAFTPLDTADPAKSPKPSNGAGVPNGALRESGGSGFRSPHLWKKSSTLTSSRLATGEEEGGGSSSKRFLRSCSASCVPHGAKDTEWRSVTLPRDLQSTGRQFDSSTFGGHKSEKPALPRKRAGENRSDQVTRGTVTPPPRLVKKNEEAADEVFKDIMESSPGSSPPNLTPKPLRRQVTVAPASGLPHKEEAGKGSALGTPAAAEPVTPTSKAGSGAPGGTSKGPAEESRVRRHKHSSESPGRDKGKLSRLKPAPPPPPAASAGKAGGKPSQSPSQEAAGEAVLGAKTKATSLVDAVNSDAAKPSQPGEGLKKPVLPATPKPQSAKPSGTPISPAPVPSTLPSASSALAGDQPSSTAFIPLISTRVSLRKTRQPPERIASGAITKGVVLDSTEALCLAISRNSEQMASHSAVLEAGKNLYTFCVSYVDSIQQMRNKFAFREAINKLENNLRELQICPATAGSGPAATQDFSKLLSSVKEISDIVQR
# Sequence of UniProt P51956 (whole entry, looked up): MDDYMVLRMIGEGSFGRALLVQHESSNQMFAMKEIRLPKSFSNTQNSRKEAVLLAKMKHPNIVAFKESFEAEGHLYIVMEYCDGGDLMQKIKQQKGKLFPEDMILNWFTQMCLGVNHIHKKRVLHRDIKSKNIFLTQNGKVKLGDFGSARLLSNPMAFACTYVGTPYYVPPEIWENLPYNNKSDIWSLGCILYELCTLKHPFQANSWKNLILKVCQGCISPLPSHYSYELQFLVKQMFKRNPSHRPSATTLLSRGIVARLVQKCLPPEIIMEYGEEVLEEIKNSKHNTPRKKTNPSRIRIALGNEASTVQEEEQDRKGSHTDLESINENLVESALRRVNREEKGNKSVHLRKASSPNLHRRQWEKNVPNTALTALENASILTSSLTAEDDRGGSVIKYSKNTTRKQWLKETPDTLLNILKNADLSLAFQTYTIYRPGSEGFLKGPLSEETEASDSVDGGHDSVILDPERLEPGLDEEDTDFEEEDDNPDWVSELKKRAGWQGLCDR
# Sequence of UniProt P31751 (whole entry, looked up): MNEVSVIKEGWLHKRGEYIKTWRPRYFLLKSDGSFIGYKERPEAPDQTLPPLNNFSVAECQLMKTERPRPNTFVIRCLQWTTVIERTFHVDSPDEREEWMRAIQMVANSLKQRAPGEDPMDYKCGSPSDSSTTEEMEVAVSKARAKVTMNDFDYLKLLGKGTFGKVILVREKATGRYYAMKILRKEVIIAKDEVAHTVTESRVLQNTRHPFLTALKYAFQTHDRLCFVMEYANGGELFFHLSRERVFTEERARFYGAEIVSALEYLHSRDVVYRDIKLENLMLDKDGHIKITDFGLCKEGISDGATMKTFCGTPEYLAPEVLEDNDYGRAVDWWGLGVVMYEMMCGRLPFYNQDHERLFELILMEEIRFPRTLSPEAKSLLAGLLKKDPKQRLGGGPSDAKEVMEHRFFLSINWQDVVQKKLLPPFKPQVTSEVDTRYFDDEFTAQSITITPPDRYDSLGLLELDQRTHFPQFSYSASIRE
# Sequence of UniProt Q9HAZ1 (whole entry, looked up): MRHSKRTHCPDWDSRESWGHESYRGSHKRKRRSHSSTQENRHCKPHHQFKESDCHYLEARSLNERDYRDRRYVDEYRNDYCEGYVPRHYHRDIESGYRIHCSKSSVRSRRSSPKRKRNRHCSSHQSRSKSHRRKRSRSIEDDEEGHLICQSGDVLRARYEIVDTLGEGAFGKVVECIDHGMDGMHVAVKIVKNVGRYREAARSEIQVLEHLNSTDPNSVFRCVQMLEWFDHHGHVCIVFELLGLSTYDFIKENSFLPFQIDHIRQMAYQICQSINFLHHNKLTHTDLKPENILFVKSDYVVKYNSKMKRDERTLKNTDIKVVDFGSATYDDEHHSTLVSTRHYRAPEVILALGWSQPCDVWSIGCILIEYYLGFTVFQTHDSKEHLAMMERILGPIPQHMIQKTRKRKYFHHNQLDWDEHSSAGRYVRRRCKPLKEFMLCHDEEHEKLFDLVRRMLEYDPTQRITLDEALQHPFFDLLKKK
# Sequence of UniProt Q9BWU1 (whole entry, looked up): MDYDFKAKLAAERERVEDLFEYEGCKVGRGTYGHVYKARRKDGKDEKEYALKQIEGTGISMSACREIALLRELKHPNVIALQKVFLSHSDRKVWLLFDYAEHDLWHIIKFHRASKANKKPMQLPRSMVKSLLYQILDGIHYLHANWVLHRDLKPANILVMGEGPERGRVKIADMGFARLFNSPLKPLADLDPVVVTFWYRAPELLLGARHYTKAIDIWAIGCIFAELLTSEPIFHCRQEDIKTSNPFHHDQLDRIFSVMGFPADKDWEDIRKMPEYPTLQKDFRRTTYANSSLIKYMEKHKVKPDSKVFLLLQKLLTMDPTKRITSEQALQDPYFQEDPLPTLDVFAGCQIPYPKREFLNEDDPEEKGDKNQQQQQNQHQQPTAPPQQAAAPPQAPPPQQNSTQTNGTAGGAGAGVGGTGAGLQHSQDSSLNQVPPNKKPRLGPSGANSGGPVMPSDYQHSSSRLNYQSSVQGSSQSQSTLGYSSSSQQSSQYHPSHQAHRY
# Sequence of UniProt O75914 (whole entry, looked up): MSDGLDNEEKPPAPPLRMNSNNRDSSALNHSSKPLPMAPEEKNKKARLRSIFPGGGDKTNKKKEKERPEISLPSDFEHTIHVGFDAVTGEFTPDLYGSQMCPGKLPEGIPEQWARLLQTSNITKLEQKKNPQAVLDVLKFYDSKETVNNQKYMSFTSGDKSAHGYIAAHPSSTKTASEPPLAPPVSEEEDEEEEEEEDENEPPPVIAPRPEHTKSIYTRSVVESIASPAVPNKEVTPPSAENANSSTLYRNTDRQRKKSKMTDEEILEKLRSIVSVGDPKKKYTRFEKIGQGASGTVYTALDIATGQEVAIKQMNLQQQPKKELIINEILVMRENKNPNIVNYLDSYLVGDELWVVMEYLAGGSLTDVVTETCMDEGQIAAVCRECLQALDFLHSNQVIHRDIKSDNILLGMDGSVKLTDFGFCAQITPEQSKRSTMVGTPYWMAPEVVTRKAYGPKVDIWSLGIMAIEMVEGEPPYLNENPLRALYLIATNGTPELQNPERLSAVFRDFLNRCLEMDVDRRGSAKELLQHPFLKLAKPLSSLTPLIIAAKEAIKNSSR

# Set 1 — technique: RNAcompete; form: RNA; medium: in vitro; concentration: 20 nM; notes: 7-mer, probes averaged, single round; baseline: mean of 7-mers; direction: higher = stronger binding
# Target: PABPC1L2, full length, GST fusion (mouse, UniProt A0ABA7IW68)
# Target sequence (chain): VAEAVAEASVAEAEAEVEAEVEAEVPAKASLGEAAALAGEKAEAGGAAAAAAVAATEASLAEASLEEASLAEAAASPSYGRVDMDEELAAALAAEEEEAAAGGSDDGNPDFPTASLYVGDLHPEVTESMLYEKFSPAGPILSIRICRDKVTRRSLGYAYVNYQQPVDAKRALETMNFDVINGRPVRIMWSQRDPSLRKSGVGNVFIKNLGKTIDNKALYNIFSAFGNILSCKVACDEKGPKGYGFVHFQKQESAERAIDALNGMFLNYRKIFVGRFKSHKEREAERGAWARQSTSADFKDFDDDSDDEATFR
Oligonucleotide,7-mer Z-score
CAGCGAC,0.0261
CCUAGAC,-0.213
UCUAAGA,-0.153
GCUCUCU,-0.335
GAAGGCA,0.196
AGACUUG,-0.146
CGAAUUA,-0.124
CUCGACC,-0.251

# Set 2 — concentration: 1 µM
# Compound: CN(C)C(=O)Cn1cc(-c2nc([C@@](C)(c3ccc(-c4cnc(N)nc4)cc3)C3CC3)no2)cn1
target,test,remaining binding
"Ribosomal protein S6 kinase alpha-4, N-terminal kinase domain (RPS6KA4, Homo sapiens, UniProt O75676)","cell-free assay, competition with immobilised ligand",100%
"BMPR1B (Homo sapiens, UniProt O00238)","cell-free assay, competition with immobilised ligand",76%
"MAP2K1 (Homo sapiens, UniProt Q02750)","cell-free assay, competition with immobilised ligand",89%
"STK36 (Homo sapiens, UniProt Q9NRP7)","cell-free assay, competition with immobilised ligand",79%
"SRC (Homo sapiens, UniProt P12931)","cell-free assay, competition with immobilised ligand",90%
"EGFR (Homo sapiens, UniProt P00533, del746-750)","cell-free assay, competition with immobilised ligand",100%
"CDK19 (Homo sapiens, UniProt Q9BWU1)",competition binding,100%
"MAP3K6 (Homo sapiens, UniProt O95382)","cell-free assay, competition with immobilised ligand",90%
"Tyrosine-protein kinase ABL1, non-phosphorylated (ABL1, Homo sapiens, UniProt P00519, F317L)","cell-free assay, competition with immobilised ligand",66%

# Set 3 — cell line: HaCaT; concentration: 100 µM; time: 18 h
Structure (SMILES),viability [%]
CCCCCCCCOc1ccccc1C(=O)Nc1ccc(C(=O)OCC[N+](C)(CC)CC)cc1,17.6
CC(=O)Oc1cc2c(s1)CCN(C(C(=O)C1CC1)c1ccccc1F)C2 (centres unmarked),77.3
C[C@H]1CC[C@@]2(O)C(C)(C)[C@@H]3CC[C@@]2(C)[C@H]1C3,39.8
C#C[C@]1(O)CC[C@H]2[C@@H]3CCC4=CC(=O)CC[C@@H]4[C@H]3C(=C)C[C@@]21CC,91.1
Cc1cn([C@H]2O[C@@H](CO)[C@H](O)[C@H]2F)c(=O)[nH]c1=O,99.4
Oc1c(I)cc(Cl)c2cccnc12,121

# Set 4 — effect on: enzyme activity; action: inhibitor; concentration: 0.5 µM; baseline: control
# Compound: CCN(CC)CCNC(=O)c1c(C)[nH]c(/C=C2\C(=O)Nc3ccc(Cl)cc32)c1C
target,remaining activity [%]
"CLK4 (Homo sapiens, UniProt Q9HAZ1)",16.8
"DDR2 (Homo sapiens, UniProt Q16832)",104
"PAK3 (Homo sapiens, UniProt O75914)",93.8
"ROCK1 (Homo sapiens, UniProt Q13464)",89.7
"DCLK2 (Homo sapiens, UniProt Q8N568)",82.8
"RPS6KA4 (Homo sapiens, UniProt O75676)",59
"MAP2K1 (Homo sapiens, UniProt Q02750)",33.1
"KDR (Homo sapiens, UniProt P35968)",13.8
"MET (Homo sapiens, UniProt P08581)",77
"AKT2 (Homo sapiens, UniProt P31751)",86.9
"TLK2 (Homo sapiens, UniProt Q86UE8)",79.6
"NEK3 (Homo sapiens, UniProt P51956)",94

# A few entries again (set 4):
target,remaining activity [%]
"PAK3 (Homo sapiens, UniProt O75914)",93.8
"MAP2K1 (Homo sapiens, UniProt Q02750)",33.1
"RPS6KA4 (Homo sapiens, UniProt O75676)",59
"KDR (Homo sapiens, UniProt P35968)",13.8
"AKT2 (Homo sapiens, UniProt P31751)",86.9
